Experimental data of several laboratories.
Each line is one published result; not all experiments were run side by side. Several values in a cell are separate wells, animals, samples, runs or records.
Sequence of UniProt Q86UE8 (whole entry, looked up): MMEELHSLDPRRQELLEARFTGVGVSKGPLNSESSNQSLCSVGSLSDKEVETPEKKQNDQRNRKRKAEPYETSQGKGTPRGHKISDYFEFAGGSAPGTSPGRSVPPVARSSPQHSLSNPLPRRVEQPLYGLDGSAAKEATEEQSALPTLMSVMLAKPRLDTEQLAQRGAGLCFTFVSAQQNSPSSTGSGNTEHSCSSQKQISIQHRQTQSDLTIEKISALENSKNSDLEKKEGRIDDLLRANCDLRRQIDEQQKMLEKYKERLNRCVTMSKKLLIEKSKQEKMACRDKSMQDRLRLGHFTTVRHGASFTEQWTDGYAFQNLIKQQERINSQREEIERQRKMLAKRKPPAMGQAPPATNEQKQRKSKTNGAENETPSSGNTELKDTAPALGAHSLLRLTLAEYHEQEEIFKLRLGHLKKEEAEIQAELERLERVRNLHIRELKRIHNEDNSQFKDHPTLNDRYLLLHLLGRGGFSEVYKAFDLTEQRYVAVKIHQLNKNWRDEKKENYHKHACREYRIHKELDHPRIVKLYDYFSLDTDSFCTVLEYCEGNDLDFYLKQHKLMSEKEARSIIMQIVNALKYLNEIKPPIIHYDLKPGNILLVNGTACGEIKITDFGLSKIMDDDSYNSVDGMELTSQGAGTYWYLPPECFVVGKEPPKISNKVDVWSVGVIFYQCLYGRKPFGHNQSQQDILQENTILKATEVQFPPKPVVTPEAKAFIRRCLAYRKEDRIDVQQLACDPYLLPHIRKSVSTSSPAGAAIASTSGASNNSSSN
Sequence of UniProt Q9UBF8 (whole entry, looked up): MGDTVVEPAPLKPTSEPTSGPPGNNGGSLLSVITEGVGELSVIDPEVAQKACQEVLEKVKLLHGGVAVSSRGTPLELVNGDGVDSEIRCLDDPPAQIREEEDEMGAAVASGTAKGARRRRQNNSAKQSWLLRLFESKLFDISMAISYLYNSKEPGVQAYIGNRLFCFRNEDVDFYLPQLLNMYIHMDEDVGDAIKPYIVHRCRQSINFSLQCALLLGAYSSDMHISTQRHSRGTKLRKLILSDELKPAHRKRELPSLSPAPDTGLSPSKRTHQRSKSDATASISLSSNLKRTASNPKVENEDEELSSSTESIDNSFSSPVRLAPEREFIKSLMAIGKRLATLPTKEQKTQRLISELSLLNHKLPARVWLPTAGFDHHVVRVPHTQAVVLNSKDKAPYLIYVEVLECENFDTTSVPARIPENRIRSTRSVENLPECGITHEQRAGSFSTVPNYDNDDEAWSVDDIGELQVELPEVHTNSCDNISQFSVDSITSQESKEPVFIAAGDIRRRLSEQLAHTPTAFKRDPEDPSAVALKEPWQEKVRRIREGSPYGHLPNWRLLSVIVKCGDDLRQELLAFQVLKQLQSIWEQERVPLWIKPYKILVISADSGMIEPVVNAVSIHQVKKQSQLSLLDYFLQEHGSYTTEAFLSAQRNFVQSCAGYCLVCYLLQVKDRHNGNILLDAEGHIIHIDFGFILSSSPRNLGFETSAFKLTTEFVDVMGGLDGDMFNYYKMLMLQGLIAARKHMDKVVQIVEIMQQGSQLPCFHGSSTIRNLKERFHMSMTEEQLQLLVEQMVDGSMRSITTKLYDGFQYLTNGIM
Sequence of UniProt Q9H093 (whole entry, looked up): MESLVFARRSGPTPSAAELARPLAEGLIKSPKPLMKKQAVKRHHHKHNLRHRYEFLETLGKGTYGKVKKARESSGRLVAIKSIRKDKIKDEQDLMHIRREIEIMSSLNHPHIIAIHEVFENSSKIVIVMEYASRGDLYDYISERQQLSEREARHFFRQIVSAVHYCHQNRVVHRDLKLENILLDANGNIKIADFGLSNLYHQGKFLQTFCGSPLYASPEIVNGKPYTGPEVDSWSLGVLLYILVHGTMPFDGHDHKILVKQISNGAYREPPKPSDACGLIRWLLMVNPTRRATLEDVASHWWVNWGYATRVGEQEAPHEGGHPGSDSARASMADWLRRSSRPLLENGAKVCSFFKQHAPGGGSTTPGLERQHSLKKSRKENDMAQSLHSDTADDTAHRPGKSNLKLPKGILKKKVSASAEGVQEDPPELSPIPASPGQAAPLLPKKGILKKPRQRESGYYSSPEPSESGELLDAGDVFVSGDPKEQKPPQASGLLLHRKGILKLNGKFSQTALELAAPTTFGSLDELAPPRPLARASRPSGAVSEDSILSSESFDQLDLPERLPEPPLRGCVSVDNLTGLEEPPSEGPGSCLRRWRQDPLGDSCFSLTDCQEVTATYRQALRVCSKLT
Sequence of UniProt Q9BQI3 (whole entry, looked up): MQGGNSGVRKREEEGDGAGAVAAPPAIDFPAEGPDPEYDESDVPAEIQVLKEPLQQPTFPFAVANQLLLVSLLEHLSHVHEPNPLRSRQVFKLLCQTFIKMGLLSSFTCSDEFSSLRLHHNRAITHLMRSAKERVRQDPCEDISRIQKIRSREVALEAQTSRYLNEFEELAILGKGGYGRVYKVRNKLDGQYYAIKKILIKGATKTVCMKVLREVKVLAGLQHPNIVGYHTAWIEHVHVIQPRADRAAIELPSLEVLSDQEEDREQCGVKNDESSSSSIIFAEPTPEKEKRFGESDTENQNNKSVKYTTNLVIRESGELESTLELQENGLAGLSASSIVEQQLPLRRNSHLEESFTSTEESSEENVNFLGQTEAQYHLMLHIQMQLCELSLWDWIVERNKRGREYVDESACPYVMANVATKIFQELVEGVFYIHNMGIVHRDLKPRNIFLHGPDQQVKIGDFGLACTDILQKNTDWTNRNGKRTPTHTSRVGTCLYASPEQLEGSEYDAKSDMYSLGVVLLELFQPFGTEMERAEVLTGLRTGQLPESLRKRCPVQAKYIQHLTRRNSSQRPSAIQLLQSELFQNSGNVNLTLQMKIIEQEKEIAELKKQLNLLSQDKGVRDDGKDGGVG

| SMILES | target or system | assay | system | conditions | quantity | value |
| --- | --- | --- | --- | --- | --- | --- |
| CCCC[C@H](NC(=O)/C=C/c1ccccc1)C(=O)N[C@H](C=O)C[C@@H]1CCCNC1=O | A549 | cell growth or viability, MTT |  | 24 h | CC50 | > 100 µM |
| Nc1ncc(-c2nc(N3CCOCC3)nc(N3CCOCC3)n2)c(C(F)F)n1 | NUAK2 (Homo sapiens, UniProt Q9H093) | binding, competition with immobilised ligand |  | 10 µM | remaining binding | 50% |
| C=C(C)[C@@]12O[C@@]3(c4ccccc4)O[C@@H]1[C@@H]1[C@@H]4O[C@]4(CO)[C@@H](O)[C@]4(O)C(=O)C(C)=C[C@H]4[C@@]1(O3)[C@H](C)[C@H]2OC(=O)/C=C/C=C/c1ccccc1 | MT4 | cell growth or viability |  |  | IC50 | 8.55 µM and > 5 µM |
| CCOC(=O)C1=C(CN2CCC[C@H]2C(=O)Nc2ccc(B(O)O)cc2)NC(c2nccs2)=N[C@H]1c1ccc(F)cc1Br | HepDES19 | cell growth or viability, MTS |  | 72 h | CC50 | 32.5 µM |
| Cc1nn(C)cc1-c1nc2c(N3CCN(Cc4ccc(Cl)cc4)CC3)c(Cl)cnc2[nH]1 | TLK2 (Homo sapiens, UniProt Q86UE8) | binding, competition with immobilised ligand |  | 1 µM | remaining binding | 92% |
| CCCC[C@H](NC(=O)/C=C/c1ccccc1)C(=O)N[C@H](C=O)C[C@@H]1CCNC1=O | A549 | cell growth or viability, MTT |  | 24 h | CC50 | > 100 µM |
| [2H]c1c([2H])c([C@]2([2H])CCCN2C(=O)C(C)(C)Oc2ccc3cn[nH]c3c2)c([2H])c([2H])c1C([2H])([2H])[2H] | PI4KB (Homo sapiens, UniProt Q9UBF8) | binding, competition with immobilised ligand |  | 1 µM | remaining binding | 92% |
| COc1ncccc1-c1cnn2ccc(N3CCN(C(=O)OC(C)C)CC3)nc12 | EIF2AK1 (Homo sapiens, UniProt Q9BQI3) | binding, competition with immobilised ligand |  | 1 µM | remaining binding | 100% |
| CN[C@@H]1C[C@H]2O[C@@](C)([C@@H]1OC)n1c3ccccc3c3c4c(c5c6ccccc6n2c5c31)C(=O)NC4 | NCI-H1975 | cell growth or viability, MTT |  | 6.3 µg | viability | 49.8% |
| CCOC(=O)C1=C(CN2CCC(C(=O)Nc3ccccc3B3OC(C)(C)C(C)(C)O3)C2)NC(c2nccs2)=NC1c1ccc(F)cc1Br (stereo not shown) | HepDES19 | cell growth or viability, MTS |  | 72 h | CC50 | > 50 µM |
| OC(c1ccc(F)cc1)C(F)(F)CCN1CCC(O)(c2ccc(Cl)cc2)CC1 (racemic) | MDR1 |  | MDCK-MDR1 | 2 h | efflux ratio | 0.84 |
| CCOC(=O)C1=C(CN2CCC[C@H]2C(=O)Nc2cccc(B(O)O)c2)NC(c2nccs2)=N[C@H]1c1ccc(F)cc1Br | HepDES19 | cell growth or viability, MTS |  | 72 h | CC50 | 31.5 µM |
| Cc1ccc(/C=C/C(=O)N[C@H](C(=O)N[C@@H](CC(C)C)C(=O)N[C@H](C=O)C[C@@H]2CCCNC2=O)C(C)C)cc1 | A549 | cell growth or viability, MTT |  | 24 h | CC50 | > 100 µM |
